{"data": "Measured values of several laboratories", "note": "Lines come from different studies, so protocols differ. Numbers after ± are the reported error."}
{"Structure (SMILES)": "O=C1NC(=O)/C(=C/c2ccc3ncnc(N4CCC(F)CC4)c3n2)S1", "organism": "Cryptosporidium parvum", "test": "parasite growth, immunofluorescence microscopy", "system": "HCT-8, Iowa", "setting": "48 h post infection, compound added at 3 h", "EC50": "140 nM"}
{"Structure (SMILES)": "COc1cc(/C=C(\\C#N)C(=O)c2ccc(O)c(O)c2)cc(I)c1O", "organism": "Strongylocentrotus purpuratus", "test": "calcium release, agonist", "system": "egg homogenate", "setting": "without cADPR", "EC50": "9100 ± 1500 nM"}
{"Structure (SMILES)": "COc1cc([C@@H]2c3cc4c(cc3[C@@H](C=C(C)C)[C@H]3COC(=O)[C@@H]23)OCO4)cc(OC)c1OC", "organism": "Dengue virus 2", "test": "viral replication, plaque reduction", "system": "BHK-21", "setting": "144 h, post-infection treatment", "EC50": "72400 nM"}
{"Structure (SMILES)": "CCCCSC(=S)N1CCN(C(=O)/C=C/c2coc3ccccc3c2=O)CC1", "organism": "tomato spotted wilt virus", "test": "virus inactivation, half-leaf method", "system": "Nicotiana glutinosa", "setting": "tested 31.25 to 500 µg/mL", "EC50": "430 ± 7.9 µg/mL"}
{"Structure (SMILES)": "CNCCNC(=O)CN1C(=O)Cc2c([nH]c3ccc(Br)cc23)-c2ccc(Cl)cc21", "organism": "Leishmania braziliensis", "test": "parasite growth", "system": "J774", "setting": "24 h, intracellular, amastigote", "EC50": "~4000 nM"}
{"Structure (SMILES)": "CCN(CC)CCSC(=S)N1CCN(C(=O)/C=C/c2coc3ccccc3c2=O)CC1", "organism": "tomato spotted wilt virus", "test": "virus inactivation, half-leaf method", "system": "Nicotiana glutinosa", "setting": "tested 31.25 to 500 µg/mL", "EC50": "235 ± 8.1 µg/mL"}
{"Structure (SMILES)": "CC(C)(O)Cn1nc(-c2ccc3nc(OC(F)F)ccc3c2)c2c(N)ncnc21", "organism": "Cryptosporidium parvum", "test": "parasite growth", "system": "HCT-8", "EC50": "286 nM"}
{"Structure (SMILES)": "Cc1cc(C(=O)Nc2nc3cccc(C)c3n2[C@H]2CCCCN(C(=O)/C=C/CN(C)C)C2)ccn1", "organism": "Trypanosoma brucei brucei", "test": "cell growth, CellTiter-Glo", "system": "Lister 427 bloodstream form", "setting": "48 h", "EC50": "72 nM"}
{"Structure (SMILES)": "COc1ccc(S(=O)(=O)NCc2c[nH]nc2-c2cccs2)cc1", "organism": "Cryptosporidium parvum", "test": "parasite replication", "system": "HCT-8, AUCP-1", "setting": "24 h, continuous treatment", "EC50": "230 nM"}
{"Structure (SMILES)": "O=C(/C=C/c1coc2ccccc2c1=O)N1CCN(C(=S)SCc2ccccc2)CC1", "organism": "tomato spotted wilt virus", "test": "virus inactivation, half-leaf method", "system": "Nicotiana glutinosa", "setting": "tested 31.25 to 500 µg/mL", "EC50": "434 ± 9.3 µg/mL"}
{"Structure (SMILES)": "CC(=O)N1CCN(C(=O)c2ccc(Nc3nccc(-c4ccc(Cl)cc4)n3)cc2)CC1", "organism": "Cryptosporidium parvum", "test": "parasite growth, immunofluorescence microscopy", "system": "HCT-8, Iowa", "setting": "48 h post infection, compound added at 3 h", "EC50": "4100 nM"}
{"note": "Excerpt of the above:"}
{"Structure (SMILES)": "CC(C)(O)Cn1nc(-c2ccc3nc(OC(F)F)ccc3c2)c2c(N)ncnc21", "organism": "Cryptosporidium parvum", "test": "parasite growth", "system": "HCT-8", "EC50": "286 nM"}
{"Structure (SMILES)": "O=C(/C=C/c1coc2ccccc2c1=O)N1CCN(C(=S)SCc2ccccc2)CC1", "organism": "tomato spotted wilt virus", "test": "virus inactivation, half-leaf method", "system": "Nicotiana glutinosa", "setting": "tested 31.25 to 500 µg/mL", "EC50": "434 ± 9.3 µg/mL"}
